Experimental data collected from several papers.
± gives the spread as reported.

Under “urinary concentration ratio”, `CCOc1ccc(Cc2cc([C@@H]3O[C@H](CO)[C@@H](O)[C@H](O[C@@H]4O[C@H](C(=O)O)[C@@H](O)[C@H](O)[C@H]4O)[C@H]3O)ccc2Cl)cc1` is recorded as 1 to 15 (mouse and rat, urine; reference: rodent over human).
`CCCC[C@H](NC(=O)CNC(=O)CNC(=O)CN1CCN(CC(=O)O)CCN(CC(=O)O)CCN(CC(=O)O)CC1)C(=O)N[C@H]1CC(=O)NCCCC[C@@H](C(N)=O)NC(=O)[C@H](Cc2c[nH]c3ccccc23)NC(=O)[C@H](CCCNC(=N)N)NC(=O)[C@@H](Cc2ccccc2)NC(=O)[C@H](Cc2c[nH]cn2)NC1=O` [indium-111 labelled] gave a urinary excretion of 60.8 ± 4.05% (C57 mouse, female, B16/F1 melanoma, urine; intravenous, 0.037 MBq, 0.5 h).
With `CC1(C)C(=CC=C2C[N+](C)(C)CC(C=CC3=[N+](CCCCCC(=O)O)c4ccccc4C3(C)C)=C2Cl)N(CCCCCC(=O)O)c2ccccc21` the urinary excretion was 32% (CD-1 mouse; intravenous, 25 nmol; reference: dose).
The urinary excretion of `CC1(C)C(/C=C/C2=C(Cl)C(=C/C=C3/N(CCCCCC(=O)O)c4ccccc4C3(C)C)/C[N+](C)(C)C2)=[N+](CCCCCC(=O)O)c2ccccc21` is reported as 32% (CD-1 mouse, male; intravenous, 25 nmol, 4 h; reference: injected dose).
With `CCCC[C@H](NC(=O)CNC(=O)CNC(=O)CN1CCN(CC(=O)O)CCN(CC(=O)O)CC1)C(=O)N[C@H]1CC(=O)NCCCC[C@@H](C(N)=O)NC(=O)[C@H](Cc2c[nH]c3ccccc23)NC(=O)[C@H](CCCNC(=N)N)NC(=O)[C@@H](Cc2ccccc2)NC(=O)[C@H](Cc2c[nH]cn2)NC1=O` [copper-64 labelled] the urinary excretion was 91.5 ± 1.66% (C57 mouse female B16/F1 melanoma, urine; intravenous, 0.037 MBq, 4 h).
`CCCC[C@H](NC(=O)CNC(=O)CNC(=O)CN1CCN(CC(=O)O)CCN(CC(=O)O)CCN(CC(=O)O)CC1)C(=O)N[C@H]1CC(=O)NCCCC[C@@H](C(N)=O)NC(=O)[C@H](Cc2c[nH]c3ccccc23)NC(=O)[C@H](CCCNC(=N)N)NC(=O)[C@@H](Cc2ccccc2)NC(=O)[C@H](Cc2c[nH]cn2)NC1=O` [gallium-67 labelled] has a urinary excretion of 84.9 % injected dose (mouse C57, B16/F1 melanoma, urine; 2 h).
For `CCCC[C@H](NC(=O)CNC(=O)CNC(=O)CN1CCN(CC(=O)O)CCN(CC(=O)O)CCN(CC(=O)O)CC1)C(=O)N[C@H]1CC(=O)NCCCC[C@@H](C(N)=O)NC(=O)[C@H](Cc2c[nH]c3ccccc23)NC(=O)[C@H](CCCNC(=N)N)NC(=O)[C@@H](Cc2ccccc2)NC(=O)[C@H](Cc2c[nH]cn2)NC1=O` [copper-64 labelled], the urinary excretion was 62.7 ± 3.56% (C57 mouse female B16/F1 melanoma, urine; intravenous, 0.037 MBq, 2 h).
`CCCC[C@H](NC(=O)[C@H](CCC(=O)O)NC(=O)CNC(=O)CN1CCN(CC(=O)O)CCN(CC(=O)O)CCN(CC(=O)O)CC1)C(=O)N[C@H]1CC(=O)NCCCC[C@@H](C(N)=O)NC(=O)[C@H](Cc2c[nH]c3ccccc23)NC(=O)[C@H](CCCNC(=N)N)NC(=O)[C@@H](Cc2ccccc2)NC(=O)[C@H](Cc2c[nH]cn2)NC1=O` [indium-111 labelled] has a urinary excretion of 93.57 ± 0.12% (C57 mouse, female, B16/F1 melanoma, urine; intravenous, 0.037 MBq, 24 h).
